# Experimental data pooled from the literature.
# Compare with care: the assays were run in different laboratories. ± marks the error that the study gave.
Compound,test,test system,conditions,tissue uptake
CC[C@H](C)[C@H](NC(=O)[C@H](CCCNC(=N)N)NC(=O)[C@H](CCCCN)NC(=O)[C@H](Cc1ccc(O)cc1)NC(=O)[C@H](CC(=O)O)NC(=O)[C@H](C)NC(=O)CNC(=O)CCOCCOCCOCCNC(=O)CN1CCN(CC(=O)O)CCN(CC(=O)O)CCN(CC(=O)O)CC1)C(=O)N[C@H](C(=O)N[C@H](C(=O)N[C@@H](CCCCN)C(=O)N[C@H](C(=O)N[C@@H](CC(N)=O)C(N)=O)C(C)C)C(C)C)[C@@H](C)O [copper-64 labelled],ex vivo gamma counting,"C57BL/6J male mice, B16-F10 tumour, blood","intravenous, 1.85 MBq, 40 min",1.53 ± 0.081 %ID/g
CC[C@H](C)[C@H](NC(=O)[C@H](CCCCN)NC(=O)CNC(=O)[C@H](CC(C)C)NC(=O)[C@H](Cc1ccccc1)NC(=O)[C@H](CCCCN)NC(=O)[C@H](CO)NC(=O)[C@H](Cc1ccccc1)NC(=O)[C@H](Cc1c[nH]c2ccccc12)NC(=O)[C@H](CCC(N)=O)NC(=O)[C@@H](NC(=O)[C@H](Cc1ccccc1)NC(=O)CCCCCNC(=O)CN1CCN(CC(=O)O)CCN(CC(=O)O)CCN(CC(=O)O)CC1)C(C)C)C(=O)N[C@@H](CCC(=O)O)C(=O)N1CCC[C@H]1C(=O)N[C@@H](CC(=O)O)C(=O)N[C@H](C(=O)N[C@@H](CO)C(=O)N[C@@H](CCC(N)=O)C(=O)N[C@H](C(=O)N[C@@H](CCC(N)=O)C(=O)N[C@@H](CC(=O)O)C(=O)N1CCC[C@H]1C(=O)N[C@@H](CC(N)=O)C(=O)N[C@@H](CC(=O)O)C(=O)N[C@@H](CCC(N)=O)C(=O)N[C@@H](Cc1ccc(O)cc1)C(=O)N[C@@H](CCC(=O)O)C(=O)N1CCC[C@H]1C(=O)N[C@@H](Cc1ccccc1)C(=O)O)C(C)C)C(C)C [copper-64 labelled],,"C57BL/6 mice, male, tumour-free, small intestine",1 h,11.1 ± 1.9 %ID/g
C[C@H](O)[C@@H](NC(=O)[C@H]1CCCN1C(=O)[C@@H](CCCCN)NC(=O)[C@@H](CO)NC(=O)[C@@H](Cc1ccc(O)cc1)NC(=O)[C@@H](CC(N)=O)NC(=O)CCOCCOCCOCCNC(=O)CN1CCN(CC(=O)O)CCN(CC(=O)O)CCN(CC(=O)O)CC1)C(=O)N[C@H](CC(=O)O)C(=O)N[C@H](CCCNC(=N)N)C(=O)N[C@H](CCC(N)=O)C(=O)N[C@H](Cc1ccc(O)cc1)C(=O)N[C@H](Cc1c[nH]cn1)C(=O)N[C@H](Cc1ccccc1)C(N)=O [gallium-68 labelled],,"BALB/c nude mice U-87 MG tumour, liver","intravenous, 1.85 MBq, 2 h, radiolabelled",0.16 ± 0.04 %ID/g
CSCC[C@H](NC(=O)CNC(=O)[C@H](CCCCN)NC(=O)[C@H](CC(C)C)NC(=O)[C@@H]1CCCN1C(=O)[C@H](CO)NC(=O)[C@H](Cc1c[nH]cn1)NC(=O)[C@H](Cc1c[nH]c2ccccc12)NC(=O)[C@H](CCCNC(=N)N)NC(=O)[C@H](CC(C)C)NC(=O)[C@H](CCCNC(=N)N)NC(=O)[C@H](Cc1c[nH]c2ccccc12)NC(=O)[C@H](CS)NC(=O)CCCCCNC(=O)CN1CCN(CC(=O)O)CCN(CC(=O)O)CCN(CC(=O)O)CC1)C(=O)O [copper-64 labelled],PET imaging,"C57BL/6J mice bearing B16-F10 tumours, tumour","intravenous, 25 h",1.93 ± 0.15 %ID/g
CC[C@H](C)[C@H](NC(=O)[C@H](CCCNC(=N)N)NC(=O)[C@H](CCCCN)NC(=O)[C@H](Cc1ccc(O)cc1)NC(=O)[C@H](CC(=O)O)NC(=O)[C@H](C)NC(=O)CNC(=O)CCOCCOCCOCCNC(=O)CN1CCN(CC(=O)O)CCN(CC(=O)O)CCN(CC(=O)O)CC1)C(=O)N[C@H](C(=O)N[C@@H](CC(C)C)C(=O)N[C@@H](CCCCN)C(=O)N[C@H](C(=O)N[C@@H](CC(N)=O)C(N)=O)C(C)C)[C@@H](C)O [copper-64 labelled],ex vivo gamma counting,"male C57BL/6J mouse, B16-F10 tumour, B16-F10 tumour","intravenous, 1.85 MBq, 100 min",1.89 ± 0.229 %ID/g
CN1Cc2cc(Cl)ccc2-n2c(nnc2C2CCN(c3cccc([18F])n3)CC2)C1,,"C57BL/6 mouse male, muscle","intravenous, dose not given, 5 min, together with: blocking agent 10 mg/kg",3.75 ± 1.05 %ID/g
CCCC[C@H]1C(=O)N(C)[C@@H](CCCC)C(=O)N[C@@H](CCCNC(=O)CN2CCN(CC(=O)O)CCN(CC(=O)O)CCN(CC(=O)O)CC2)C(=O)N[C@H](C(=O)NCC(N)=O)CSCC(=O)N[C@@H](Cc2ccc(O)cc2)C(=O)N(C)[C@@H](C)C(=O)N[C@@H](CC(N)=O)C(=O)N2CCC[C@H]2C(=O)N[C@@H](Cc2c[nH]cn2)C(=O)N[C@@H](CC(C)C)C(=O)N(C)CC(=O)N[C@@H](Cc2c[nH]c3ccccc23)C(=O)N[C@@H](CO)C(=O)N[C@@H](Cc2c[nH]c3ccccc23)C(=O)N1C [gallium-68 labelled],,"NOD/SCID mice, CHO-hPD-L1 xenograft, spleen","60 min, atezolizumab 10 mg/kg pretreatment",3.72 ± 0.55 %ID/g
CC(C)C[C@@H](NC(=O)[C@@H](CCCNC(=N)N)NC(=O)[C@@H](Cc1c[nH]cn1)NC(=O)[C@@H](Cc1c[nH]c2ccccc12)NC(=O)[C@@H](Cc1c[nH]cn1)NC(=O)[C@@H](Cc1ccccc1)NC(=O)[C@H](NC(=O)[C@@H](Cc1ccc(O)cc1)NC(=O)CNC(=O)CNC(=O)CCOCCOCCOCCNC(=O)CN1CCN(CC(=O)O)CCN(CC(=O)O)CC1)[C@H](C)O)C(=O)N[C@H](CC(N)=O)C(=O)N1CCC[C@@H]1C(=O)O [gallium-68 labelled],,"C57BL/6 mice, male, liver","intravenous, 1.85 MBq, 60 min, together with: GP12 blocking",1.08 ± 0.16 %ID/g

# Some of these lines once more:
Compound,test,test system,conditions,tissue uptake
CC[C@H](C)[C@H](NC(=O)[C@H](CCCNC(=N)N)NC(=O)[C@H](CCCCN)NC(=O)[C@H](Cc1ccc(O)cc1)NC(=O)[C@H](CC(=O)O)NC(=O)[C@H](C)NC(=O)CNC(=O)CCOCCOCCOCCNC(=O)CN1CCN(CC(=O)O)CCN(CC(=O)O)CCN(CC(=O)O)CC1)C(=O)N[C@H](C(=O)N[C@H](C(=O)N[C@@H](CCCCN)C(=O)N[C@H](C(=O)N[C@@H](CC(N)=O)C(N)=O)C(C)C)C(C)C)[C@@H](C)O [copper-64 labelled],ex vivo gamma counting,"C57BL/6J male mice, B16-F10 tumour, blood","intravenous, 1.85 MBq, 40 min",1.53 ± 0.081 %ID/g
